{"data": "Experimental data gathered from unrelated publications", "note": "Every numbered part comes from another study and shows a few of its results, in no order. Substitutions count along the parent as printed."}
{"data": "Sample 1", "target": "Sal-like protein 4, full length isoform A (SALL4, Homo sapiens, UniProt Q9UJQ4, residues 1-1053)", "method": "universal PBM", "form": "double-stranded DNA, one strand shown", "sample": "in vitro", "tested at": "600 nM", "setting": "8-mer, flanks averaged, mean of replicates", "reading": "higher = stronger binding", "UniProt Q9UJQ4, sequence (whole entry, looked up)": "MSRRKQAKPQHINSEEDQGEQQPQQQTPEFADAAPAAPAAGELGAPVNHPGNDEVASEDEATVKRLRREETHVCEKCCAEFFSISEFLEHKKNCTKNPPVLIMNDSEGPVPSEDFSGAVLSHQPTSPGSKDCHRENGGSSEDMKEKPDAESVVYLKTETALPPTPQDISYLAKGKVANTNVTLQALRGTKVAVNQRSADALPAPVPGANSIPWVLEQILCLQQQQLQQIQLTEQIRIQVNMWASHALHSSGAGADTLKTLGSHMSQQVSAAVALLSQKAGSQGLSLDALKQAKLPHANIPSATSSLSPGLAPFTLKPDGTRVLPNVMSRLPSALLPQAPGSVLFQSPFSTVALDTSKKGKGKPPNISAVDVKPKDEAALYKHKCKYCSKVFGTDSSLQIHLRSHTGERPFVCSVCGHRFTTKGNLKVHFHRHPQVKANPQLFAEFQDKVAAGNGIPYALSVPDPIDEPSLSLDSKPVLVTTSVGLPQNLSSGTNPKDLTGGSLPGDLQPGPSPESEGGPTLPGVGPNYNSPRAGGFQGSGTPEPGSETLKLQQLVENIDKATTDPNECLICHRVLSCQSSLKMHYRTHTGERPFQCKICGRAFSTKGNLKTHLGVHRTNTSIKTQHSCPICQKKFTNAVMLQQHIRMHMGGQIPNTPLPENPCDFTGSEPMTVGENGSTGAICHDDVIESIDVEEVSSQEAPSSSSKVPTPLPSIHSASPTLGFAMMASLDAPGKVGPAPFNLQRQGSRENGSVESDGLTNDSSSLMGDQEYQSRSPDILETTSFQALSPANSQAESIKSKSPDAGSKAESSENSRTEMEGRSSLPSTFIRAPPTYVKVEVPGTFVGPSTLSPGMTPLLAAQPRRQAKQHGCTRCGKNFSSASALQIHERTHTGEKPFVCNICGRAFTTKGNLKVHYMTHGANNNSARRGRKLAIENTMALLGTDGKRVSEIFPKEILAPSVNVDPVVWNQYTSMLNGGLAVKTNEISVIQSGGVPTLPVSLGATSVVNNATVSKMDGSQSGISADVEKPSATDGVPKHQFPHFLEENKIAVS"}
{"Oligonucleotide": "AACCGGTT", "E-score": -0.143}
{"Oligonucleotide": "AGAGACAG", "E-score": -0.0821}
{"Oligonucleotide": "CGTTACAG", "E-score": -0.0531}
{"Oligonucleotide": "CGGCCATA", "E-score": -0.0686}
{"Oligonucleotide": "ATGAAGGA", "E-score": 0.299}
{"Oligonucleotide": "CCGCACCC", "E-score": -0.359}
{"Oligonucleotide": "AGAGTGAC", "E-score": -0.148}
{"Oligonucleotide": "TCGGACAA", "E-score": 0.0656}
{"Oligonucleotide": "ACGGTGTC", "E-score": -0.247}
{"Oligonucleotide": "CCTTGTAA", "E-score": 0.24}
{"Oligonucleotide": "ACAGGCAC", "E-score": -0.237}
{"Oligonucleotide": "CCACGGTA", "E-score": -0.129}
{"Oligonucleotide": "CTGTCCAC", "E-score": -0.144}
{"Oligonucleotide": "CTGACGGA", "E-score": 0.00928}
{"Oligonucleotide": "GCAGCACC", "E-score": -0.227}
{"Oligonucleotide": "ATACAGGA", "E-score": 0.13}
{"Oligonucleotide": "TATAGTCA", "E-score": 0.27}
{"Oligonucleotide": "CATGCCCC", "E-score": -0.241}
{"Oligonucleotide": "AAGGGAGC", "E-score": -0.289}
{"Oligonucleotide": "CCCGACGG", "E-score": -0.337}
{"Oligonucleotide": "AGCCTGAT", "E-score": -0.0501}
{"Oligonucleotide": "CAGTATAA", "E-score": 0.293}
{"Oligonucleotide": "AGTTCCGA", "E-score": -0.107}
{"Oligonucleotide": "CGTATCGA", "E-score": -0.00383}
{"Oligonucleotide": "ATTAGACG", "E-score": 0.118}
{"data": "Sample 2", "target": "CCND3, cyclin fold, Cln2 fusion (human)", "method": "yeast growth competition, sequencing", "sample": "yeast", "setting": "weak parent motif", "reference": "not given", "reading": "higher = stronger binding", "starting sequence": "DBF4 docking peptide (human); DDIVSKLVFDFVE; partner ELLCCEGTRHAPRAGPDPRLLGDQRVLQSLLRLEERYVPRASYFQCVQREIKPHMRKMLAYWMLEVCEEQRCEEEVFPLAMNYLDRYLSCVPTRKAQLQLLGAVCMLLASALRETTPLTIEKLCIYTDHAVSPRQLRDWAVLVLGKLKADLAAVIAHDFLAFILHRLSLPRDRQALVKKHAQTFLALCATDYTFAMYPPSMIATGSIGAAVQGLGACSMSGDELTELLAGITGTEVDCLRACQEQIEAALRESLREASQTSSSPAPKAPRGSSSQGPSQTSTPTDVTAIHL"}
{"Substitution": "F11A", "normalised enrichment score": -0.334}
{"Substitution": "F9A", "normalised enrichment score": -0.246}
{"Substitution": "D2A", "normalised enrichment score": -0.158}
{"Substitution": "V8A", "normalised enrichment score": -0.0118}
{"Substitution": "K6A", "normalised enrichment score": -0.366}
{"Substitution": "V12A", "normalised enrichment score": -0.593}
{"Substitution": "D10A", "normalised enrichment score": -0.391}
{"data": "Sample 3", "target": "Hepatocyte nuclear factor 3-beta, forkhead domain (FOXA2, Homo sapiens, UniProt Q9Y261, residues 142-269)", "method": "protein-binding microarray", "form": "double-stranded DNA, one strand shown", "sample": "in vitro", "tested at": "not given", "setting": "k-mer, scored over probes, only values ≥0.25", "reading": "higher = stronger binding", "Residues (chain)": "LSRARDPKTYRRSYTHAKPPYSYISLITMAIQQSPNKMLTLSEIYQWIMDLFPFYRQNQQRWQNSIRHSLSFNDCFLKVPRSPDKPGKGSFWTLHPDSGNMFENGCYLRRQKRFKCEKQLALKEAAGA"}
{"Oligonucleotide": "ATCAACAC", "E-score": 0.297}
{"Oligonucleotide": "ACTCGGTA", "E-score": 0.277}
{"Oligonucleotide": "ATATAATG", "E-score": 0.292}
{"Oligonucleotide": "AATTATGA", "E-score": 0.294}
{"Oligonucleotide": "GTATAACA", "E-score": 0.379}
{"Oligonucleotide": "ATTTAATG", "E-score": 0.289}
{"Oligonucleotide": "CACTATAG", "E-score": 0.266}
{"Oligonucleotide": "ACAATGAT", "E-score": 0.278}
{"Oligonucleotide": "AACAATAT", "E-score": 0.398}
{"Oligonucleotide": "ACACATGA", "E-score": 0.323}
{"Oligonucleotide": "AACACTTC", "E-score": 0.266}
{"Oligonucleotide": "CTTTGTAA", "E-score": 0.315}
{"Oligonucleotide": "GAATATAA", "E-score": 0.292}
{"Oligonucleotide": "GTTTACCA", "E-score": 0.275}
{"Oligonucleotide": "ATCACACA", "E-score": 0.33}
{"Oligonucleotide": "CGGATATA", "E-score": 0.285}
{"Oligonucleotide": "TATGTAAA", "E-score": 0.302}
{"data": "Sample 4", "target": "TAR DNA-binding protein 43, full length, His tag (TARDBP, Homo sapiens, UniProt Q13148, residues 1-414)", "method": "RNA Bind-n-Seq", "form": "RNA", "sample": "in vitro", "tested at": "20 nM", "setting": "6-mer, flanks averaged, single round", "with": "150 mM LiCl", "reference": "input library", "reading": "higher = stronger binding"}
{"Oligonucleotide": "AAAGUC", "6-mer enrichment (R)": 0.815}
{"Oligonucleotide": "UUCAGG", "6-mer enrichment (R)": 0.91}
{"Oligonucleotide": "CGUAUA", "6-mer enrichment (R)": 0.902}
{"Oligonucleotide": "UCUAAC", "6-mer enrichment (R)": 0.828}
{"Oligonucleotide": "GAGAUC", "6-mer enrichment (R)": 0.898}
{"Oligonucleotide": "GUACGU", "6-mer enrichment (R)": 1.02}
{"Oligonucleotide": "AGGCUU", "6-mer enrichment (R)": 0.885}
{"Oligonucleotide": "CUCGAU", "6-mer enrichment (R)": 0.801}
{"Oligonucleotide": "CAUGAA", "6-mer enrichment (R)": 0.887}
{"Oligonucleotide": "AUUUUA", "6-mer enrichment (R)": 1.18}
{"Oligonucleotide": "UCGCGC", "6-mer enrichment (R)": 0.913}
{"Oligonucleotide": "UCGGUA", "6-mer enrichment (R)": 0.943}
{"Oligonucleotide": "GAAGAU", "6-mer enrichment (R)": 0.891}
{"Oligonucleotide": "UUUUCU", "6-mer enrichment (R)": 1.28}
{"Oligonucleotide": "ACCAAU", "6-mer enrichment (R)": 0.898}
{"Oligonucleotide": "AGUUCC", "6-mer enrichment (R)": 0.883}
{"Oligonucleotide": "GACCAC", "6-mer enrichment (R)": 0.862}
{"Oligonucleotide": "GGGUCU", "6-mer enrichment (R)": 1}
{"Oligonucleotide": "CGCCGG", "6-mer enrichment (R)": 0.934}
{"Oligonucleotide": "UCGAUC", "6-mer enrichment (R)": 0.825}
{"data": "Sample 5", "target": "Interferon regulatory factor 5, full length, phosphomimetic (IRF5, Homo sapiens, UniProt Q13568-2, residues 1-514, S451D/S453D/S456D/S462D)", "method": "protein-binding microarray", "form": "double-stranded DNA, one strand shown", "sample": "in vitro", "tested at": "940 nM top", "setting": "60-bp whole probe", "with": "salmon DNA 0.4 mg/ml", "reference": "random background probes", "reading": "higher = stronger binding", "constant ends, left off below": "GCCTAGCAC … GTCTTGATTCGCTTGACGCTGCTG"}
{"Oligonucleotide": "TCACTTCTCTTTTGGCTACTGTGCTAG", "fitted relative affinity": "1.72 z-score"}
{"Oligonucleotide": "TTACGTATCCTTTTCCTTTAGTGCTAG", "fitted relative affinity": "1.56 z-score"}
{"Oligonucleotide": "TTAGATTTCAGTTCCGTTTAGTGCTAG", "fitted relative affinity": "1.77 z-score"}
{"Oligonucleotide": "GACGATTTCAGACTGGAGAGGTGCTAG", "fitted relative affinity": "-0.41 z-score"}
{"Oligonucleotide": "GTCGATCTCAGTCTCGAGACGTGCTAG", "fitted relative affinity": "2.55 z-score"}
{"Oligonucleotide": "GACGATTTTAGTTCCGAGACGTGCTAG", "fitted relative affinity": "0.871 z-score"}
{"Oligonucleotide": "GACGGTATCCTTTTCCTGCCGTGCTAG", "fitted relative affinity": "0.498 z-score"}
{"Oligonucleotide": "AGGGCAGGGAGGGGGACAGCGTGCTAG", "fitted relative affinity": "1.96 z-score"}
{"Oligonucleotide": "GGTCCAACAAACAGATCCATGTGCTAG", "fitted relative affinity": "0.126 z-score"}
{"Oligonucleotide": "GACGGTTTCCTACTGCTGACGTGCTAG", "fitted relative affinity": "0.944 z-score"}
{"Oligonucleotide": "TCTTTTATTTTTTTTATTTAGTGCTAG", "fitted relative affinity": "2.06 z-score"}
{"Oligonucleotide": "GACTGACTGGGGTTTCGGGACGTGCTA", "fitted relative affinity": "2.1 z-score"}
{"Oligonucleotide": "GACGATTTCGGGACTGGAGGCGTGCTA", "fitted relative affinity": "-0.105 z-score"}
{"data": "Sample 6", "target": "RNA binding protein fox-1 homolog 2, RRM domain, GST-SBP tag (RBFOX2, Homo sapiens, UniProt O43251-10, residues 100-194)", "method": "RNA Bind-n-Seq", "form": "RNA", "sample": "in vitro", "tested at": "365 nM", "setting": "natural RNA segment, single round, ends assumed", "reference": "no-protein control", "reading": "higher = stronger binding", "constant ends, left off below": "GGGAGUUCUACAGUCCGACGAUC … UGGAAUUCUCGGGUGCCAA", "Residues (chain)": "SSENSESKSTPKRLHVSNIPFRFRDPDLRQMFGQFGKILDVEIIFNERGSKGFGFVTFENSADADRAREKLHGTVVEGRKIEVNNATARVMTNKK"}
{"Oligonucleotide": "GUACAUUUGUAAAUACUCAGUUUUGUAUUGUAUGUAUAUGAUUGCUAUUCUCAGAGGUUUGGACUUUCGUAUUGUAAUUAGCUCUGUUGGCAUGGUGACUUGUCACUCCU", "RBNS enrichment (R)": 5.61}
{"Oligonucleotide": "GUUUGAGUUUUUUGUGUGCUGUAUUUCUUUCUGUUUUUUAAUACCUGGUUUUGUACAUAUCUAACUCUGUUCUCUUUUGGUUGUUCAGAAACUGGAUUUUUUUUUUCUUA", "RBNS enrichment (R)": 1.08}
{"Oligonucleotide": "AAACACAUCUGUCAUUGUCUUGUGGACGUGGAAAGGAAGCUACUGUCCUCACACUCCUGGAUCACUGAGCAGAAUGAACAUUUUCUCCAGCCUCUGAGACUAUCGCUCUU", "RBNS enrichment (R)": 5.14}
{"Oligonucleotide": "UAAAGGGGGAAUCUUAUAAAAUCCUGUGCAAUAGACAUACAUAGCUGUACUCAGAAGGGCUGUCUUCAUCUGGACUCCCACUAGAGAACAGGCGAGCUCCUGAGGGCUCU", "RBNS enrichment (R)": 0.261}
{"Oligonucleotide": "ACAAAGAAGGAGUUGGAGAUGAAAAAGUGGUACUGUGUCAAGGGAAGAUUUUUGUGAGUUUUCCAUCAUGUUGGCCAUCACAUCCUGACUGAAGUCUCAAGAUUCCUGGA", "RBNS enrichment (R)": 0.226}
{"Oligonucleotide": "AAAAAAUUCGUGAUUCCUUGAGUGUCCACACGUUUUGUCUUUGGGGGUUAAGGGUUGGGAUUUUGGGUUUGUUGUUAAUUUUGUUGUUUUAAAGGUAAAUUGCACUUUUA", "RBNS enrichment (R)": 1.39}
{"Oligonucleotide": "GCCAGAAAAGGAAAGACACUGGGGGACUUCAACAGUUAAGCUCAAGUUGCCAAUUUGCUAUAAAUCCCUUUUGCCAUCAGUCUGCUUACAGUGAUAUAUAUAGUGUUCUU", "RBNS enrichment (R)": 0.381}
{"Oligonucleotide": "AGUCCUCAGCCUCACAGCUUCCUUCCCUUUUCAGCAGGCUGAUGGAGACAUGCCACCAACAUAGACAGGUUGGUCACCGAUGGCCAUUUUCAUAAAUAUUUCUGUGGGCC", "RBNS enrichment (R)": 0.526}
{"note": "Excerpt of the above (sample 1):"}
{"Oligonucleotide": "CCTTGTAA", "E-score": 0.24}
{"Oligonucleotide": "CGTTACAG", "E-score": -0.0531}
{"Oligonucleotide": "CGGCCATA", "E-score": -0.0686}
{"Oligonucleotide": "CCCGACGG", "E-score": -0.337}
{"Oligonucleotide": "CTGTCCAC", "E-score": -0.144}
{"Oligonucleotide": "ACAGGCAC", "E-score": -0.237}
{"Oligonucleotide": "CATGCCCC", "E-score": -0.241}
{"Oligonucleotide": "TATAGTCA", "E-score": 0.27}
{"Oligonucleotide": "CCACGGTA", "E-score": -0.129}
{"Oligonucleotide": "ATTAGACG", "E-score": 0.118}
{"Oligonucleotide": "ATGAAGGA", "E-score": 0.299}
{"Oligonucleotide": "AGAGACAG", "E-score": -0.0821}
{"Oligonucleotide": "CTGACGGA", "E-score": 0.00928}
{"Oligonucleotide": "CGTATCGA", "E-score": -0.00383}
{"Oligonucleotide": "AGTTCCGA", "E-score": -0.107}
